Published values of several laboratories.
“And” joins repeats or separate records; there may be more than shown. ± marks the error that the study gave.
ABCG2: Broad substrate specificity ATP-binding cassette transporter ABCG2 (ABCG2, Homo sapiens, UniProt Q9UNQ0)
Sequence of UniProt Q9UNQ0 (whole entry, looked up): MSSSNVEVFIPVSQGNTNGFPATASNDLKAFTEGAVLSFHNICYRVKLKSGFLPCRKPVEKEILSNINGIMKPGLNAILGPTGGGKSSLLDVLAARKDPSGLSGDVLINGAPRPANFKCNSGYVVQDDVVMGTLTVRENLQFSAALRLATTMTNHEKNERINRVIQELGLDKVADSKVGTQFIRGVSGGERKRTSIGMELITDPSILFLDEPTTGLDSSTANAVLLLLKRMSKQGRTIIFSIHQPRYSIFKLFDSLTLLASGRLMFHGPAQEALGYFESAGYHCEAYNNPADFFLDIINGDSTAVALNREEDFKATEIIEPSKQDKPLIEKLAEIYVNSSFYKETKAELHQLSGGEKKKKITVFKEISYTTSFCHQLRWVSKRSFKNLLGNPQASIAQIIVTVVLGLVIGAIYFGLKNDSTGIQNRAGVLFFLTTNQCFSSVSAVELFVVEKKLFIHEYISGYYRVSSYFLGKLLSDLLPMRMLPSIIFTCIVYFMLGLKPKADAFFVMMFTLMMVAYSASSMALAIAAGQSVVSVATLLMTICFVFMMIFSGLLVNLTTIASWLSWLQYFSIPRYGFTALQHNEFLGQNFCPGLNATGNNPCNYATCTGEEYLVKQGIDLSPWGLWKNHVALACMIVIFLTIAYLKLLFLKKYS
TF: TF (Homo sapiens, UniProt P02787)
SLCO1B3: Solute carrier organic anion transporter family member 1B3 (SLCO1B3, Homo sapiens, UniProt Q9NPD5)
Sequence of UniProt P11712 (whole entry, looked up): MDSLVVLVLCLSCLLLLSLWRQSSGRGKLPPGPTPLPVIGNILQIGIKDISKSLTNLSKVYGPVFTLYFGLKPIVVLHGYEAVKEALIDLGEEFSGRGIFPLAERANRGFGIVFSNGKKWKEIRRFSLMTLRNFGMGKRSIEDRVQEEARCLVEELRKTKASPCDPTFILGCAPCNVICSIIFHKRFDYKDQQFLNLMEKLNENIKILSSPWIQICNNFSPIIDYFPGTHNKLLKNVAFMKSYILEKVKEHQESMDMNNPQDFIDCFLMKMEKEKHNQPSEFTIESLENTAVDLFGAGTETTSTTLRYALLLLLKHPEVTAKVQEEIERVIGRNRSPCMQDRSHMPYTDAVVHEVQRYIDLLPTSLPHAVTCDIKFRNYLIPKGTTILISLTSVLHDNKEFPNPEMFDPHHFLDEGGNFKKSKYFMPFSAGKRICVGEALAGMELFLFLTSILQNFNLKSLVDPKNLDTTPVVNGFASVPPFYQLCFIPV
Sequence of UniProt Q9NPD5 (whole entry, looked up): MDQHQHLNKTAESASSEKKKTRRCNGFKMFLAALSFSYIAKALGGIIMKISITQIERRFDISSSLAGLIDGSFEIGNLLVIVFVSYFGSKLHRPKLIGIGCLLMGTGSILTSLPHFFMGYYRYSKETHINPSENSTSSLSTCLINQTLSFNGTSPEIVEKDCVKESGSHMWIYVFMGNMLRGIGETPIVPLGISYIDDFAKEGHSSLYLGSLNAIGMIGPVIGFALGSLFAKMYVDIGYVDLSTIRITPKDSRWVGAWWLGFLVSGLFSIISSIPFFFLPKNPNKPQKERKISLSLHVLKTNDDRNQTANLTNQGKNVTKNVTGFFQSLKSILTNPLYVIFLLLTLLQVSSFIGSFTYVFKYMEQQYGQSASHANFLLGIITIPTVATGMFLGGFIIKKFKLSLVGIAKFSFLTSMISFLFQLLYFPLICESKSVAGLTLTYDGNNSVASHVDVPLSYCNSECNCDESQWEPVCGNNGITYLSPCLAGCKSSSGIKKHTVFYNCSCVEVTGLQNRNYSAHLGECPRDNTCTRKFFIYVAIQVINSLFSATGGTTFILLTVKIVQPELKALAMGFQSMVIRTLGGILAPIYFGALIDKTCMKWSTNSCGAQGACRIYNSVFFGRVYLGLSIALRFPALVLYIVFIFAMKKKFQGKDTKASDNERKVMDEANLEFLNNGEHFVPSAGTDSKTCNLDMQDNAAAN
Sequence of UniProt P08684 (whole entry, looked up): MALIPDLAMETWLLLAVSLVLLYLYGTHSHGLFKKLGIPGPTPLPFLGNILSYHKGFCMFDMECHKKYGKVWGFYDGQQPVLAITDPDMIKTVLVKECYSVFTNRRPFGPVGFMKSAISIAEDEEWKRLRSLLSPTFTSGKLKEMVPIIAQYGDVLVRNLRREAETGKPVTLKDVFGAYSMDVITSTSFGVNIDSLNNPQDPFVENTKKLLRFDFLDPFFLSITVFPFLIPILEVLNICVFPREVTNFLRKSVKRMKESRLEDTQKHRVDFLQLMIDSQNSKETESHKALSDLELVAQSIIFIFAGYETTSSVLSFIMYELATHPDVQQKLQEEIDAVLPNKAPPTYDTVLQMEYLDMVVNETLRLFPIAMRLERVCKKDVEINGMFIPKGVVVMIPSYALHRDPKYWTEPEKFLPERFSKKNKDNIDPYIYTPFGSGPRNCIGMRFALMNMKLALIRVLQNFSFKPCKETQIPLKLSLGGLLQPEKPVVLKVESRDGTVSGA

`CNc1nc(N)nc2c1ncn2[C@@H]1O[C@H](CO)[C@@H](O)[C@@]1(C)F`: “Papp B to A” 23.1 ± 1.3 ×10⁻⁶ cm/s (ABCG2; bidirectional transport; MDCKII transfected with human BCRP; 10 µM).
The transchelation half-life of `CN(CCNCc1ccncc1[O-])CCNCc1ccncc1[O-].[Cl-].[Fe+3]` is reported as 46 min (TF; pH 7.4, 37 °C, 4-fold transferrin decrease).
With `O=C(O)c1cccc(CN2Cc3cccc(n3)CN(Cc3cccc(C(=O)O)n3)Cc3cccc(n3)C2)n1` the pMn was 7.94 (Mn2+; potentiometric titration; pH 7.4, ligand and Mn2+ 10 µM).
The pKa of `CC(C)(C)N1Cc2cccc(n2)CN(C(C)(C)C)Cc2cc(-c3nc4ccccc4s3)cc(n2)C1` is reported as 8.12 (Zn(II) complex; UV-vis titration; bound water deprotonation).
`CN(CCNCc1cc(C(=O)[O-])ccc1[O-])CCNCc1cc(C(=O)[O-])ccc1[O-].[Cl-].[Fe+3].[K+].[K+]` gave a transchelation half-life of 10 min (TF; 0.05 mM, pH 7.4, 37 °C, added: transferrin 0.10 mM).
`CN(O)C(=O)CCC(=O)NCCCN(CCCCN(CCCNC(=O)CCC(=O)N(C)O)C(=O)CCC(=O)N(C)O)C(=O)CCC(=O)N(C)O.[89Zr]` gave a transferrin binding of 12.1 ± 1.6% (TF; transchelation challenge; concentration not given, 3 days, 37 °C, added: apo-transferrin 10 equiv).
The Km of `O=C(c1ccc(OCCN2CCCCC2)cc1)c1c(-c2ccc(O[C@@H]3O[C@H](C(=O)O)[C@@H](O)[C@H](O)[C@H]3O)cc2)sc2cc(O)ccc12` is reported as 4.13 µM (SLCO1B3; transporter uptake, substrate; HEK293; pH 7.4).
`C=CC(=O)Nc1cc(Nc2nccc(-c3cn(C)c4ccccc34)n2)c(OCC(F)(F)F)nc1N(C)CCN(C)C`: “contribution to substrate depletion” 78.4% (Cytochrome P450 3A4 (CYP3A4, Homo sapiens, UniProt P08684); substrate; 3 µM, 60 min, 3A4 isoform, liver abundance-normalized).
For `c1ccc(CN2Cc3cccc(n3)CN(Cc3ccccn3)Cc3cccc(n3)C2)nc1`, “log stability constant, hydroxo complex” read 10.8 (Mn2+; potentiometric titration; 0.16 M NaCl; 25 °C).
`CNc1nc(N)nc2c1ncn2[C@@H]1O[C@H](CO[P@](=O)(O)N[C@@H](C)C(=O)O)[C@@H](O)[C@@]1(C)F` gave an efflux ratio of 0.854 ± 0.123 (ABCG2; bidirectional transport; MDCKII transfected with human BCRP; 10 µM, added: Ko143 1 µM).
With `CC(C)(C)N1Cc2cc(-c3nc4ccccc4s3)cc(n2)CN(C(C)(C)C)Cc2cc(-c3nc4ccccc4s3)cc(n2)C1` the pKa was 9.5 (Cu(II) complex; UV-vis titration; 0.1 M NaCl; 25 °C, bound water deprotonation).
With `CNC(=O)C1CCCN(C(=O)C2CC3CCC2N3C(=O)[C@@H]2C[C@@H](O)CN2C(=O)NCc2cccc(Cl)c2F)C1` (mixture of isomers) the remaining activity was 93.6% and 109% and 98.7% (Cytochrome P450 2C9 (CYP2C9, Homo sapiens, UniProt P11712); preincubation with NADPH; human; 1.85 µM; reference: negative control).
`C[C@@]1(F)[C@H](O)[C@@H](CO)O[C@H]1n1cnc2c(=O)[nH]c(N)nc21` — result for “Papp B to A”: 2.19 ± 0.12 ×10⁻⁶ cm/s (ABCG2; bidirectional transport; MDCKII transfected with human BCRP; 10 µM, added: Ko143 1 µM).
`O=C(c1ccc(OCCN2CCCCC2)cc1)c1c(-c2ccc(O)cc2)sc2cc(O[C@@H]3O[C@H](C(=O)O)[C@@H](O)[C@H](O)[C@H]3O)ccc12` has a Km of 11.7 µM (SLCO1B3; transporter uptake, substrate; HEK293; pH 7.4).

For quick reference, copied from above:
With `O=C(O)c1cccc(CN2Cc3cccc(n3)CN(Cc3cccc(C(=O)O)n3)Cc3cccc(n3)C2)n1` the pMn was 7.94 (Mn2+; potentiometric titration; pH 7.4, ligand and Mn2+ 10 µM).
The pKa of `CC(C)(C)N1Cc2cccc(n2)CN(C(C)(C)C)Cc2cc(-c3nc4ccccc4s3)cc(n2)C1` is reported as 8.12 (Zn(II) complex; UV-vis titration; bound water deprotonation).
